Results pooled from the literature.
Lines come from different studies, so protocols differ. ± gives the spread as reported.
CYP1A2: Cytochrome P450 1A2 (CYP1A2, Homo sapiens, UniProt P05177)
7-alpha-hydroxycholest-4-en-3-one 12-alpha-hydroxylase: 7-alpha-hydroxycholest-4-en-3-one 12-alpha-hydroxylase (Homo sapiens, UniProt Q9UNU6)
UniProt Q9UNU6, sequence (whole entry, looked up): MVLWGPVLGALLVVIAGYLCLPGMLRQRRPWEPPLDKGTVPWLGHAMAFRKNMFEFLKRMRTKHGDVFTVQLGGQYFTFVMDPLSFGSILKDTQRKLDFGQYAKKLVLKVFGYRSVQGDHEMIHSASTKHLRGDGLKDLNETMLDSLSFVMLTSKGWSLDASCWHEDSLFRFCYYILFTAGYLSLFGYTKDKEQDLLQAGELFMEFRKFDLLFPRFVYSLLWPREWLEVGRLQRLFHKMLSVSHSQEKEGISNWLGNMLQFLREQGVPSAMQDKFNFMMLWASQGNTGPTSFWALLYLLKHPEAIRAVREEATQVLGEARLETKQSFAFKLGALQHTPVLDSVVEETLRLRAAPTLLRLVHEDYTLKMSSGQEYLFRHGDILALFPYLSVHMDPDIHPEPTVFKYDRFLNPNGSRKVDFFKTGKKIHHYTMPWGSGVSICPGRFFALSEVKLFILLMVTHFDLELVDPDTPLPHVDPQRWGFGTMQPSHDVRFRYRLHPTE
CYP2E1: Cytochrome P450 2E1 (CYP2E1, Homo sapiens, UniProt P05181)
UniProt P05181, sequence (whole entry, looked up): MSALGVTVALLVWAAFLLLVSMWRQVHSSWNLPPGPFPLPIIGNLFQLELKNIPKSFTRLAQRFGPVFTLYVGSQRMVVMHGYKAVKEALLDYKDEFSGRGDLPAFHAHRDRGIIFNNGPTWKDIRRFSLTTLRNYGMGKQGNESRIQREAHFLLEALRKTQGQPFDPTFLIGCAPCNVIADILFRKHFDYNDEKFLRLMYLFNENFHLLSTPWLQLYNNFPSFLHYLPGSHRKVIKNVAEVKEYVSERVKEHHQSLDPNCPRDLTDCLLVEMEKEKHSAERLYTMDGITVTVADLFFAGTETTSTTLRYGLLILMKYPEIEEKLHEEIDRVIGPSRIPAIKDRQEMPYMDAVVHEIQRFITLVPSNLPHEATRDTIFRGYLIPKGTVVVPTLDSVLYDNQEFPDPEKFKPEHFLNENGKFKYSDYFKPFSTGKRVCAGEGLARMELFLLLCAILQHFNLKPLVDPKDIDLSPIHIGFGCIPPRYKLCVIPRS
SLC47A1: Multidrug and toxin extrusion protein 1 (SLC47A1, Homo sapiens, UniProt Q96FL8)
UniProt Q96FL8, sequence (whole entry, looked up): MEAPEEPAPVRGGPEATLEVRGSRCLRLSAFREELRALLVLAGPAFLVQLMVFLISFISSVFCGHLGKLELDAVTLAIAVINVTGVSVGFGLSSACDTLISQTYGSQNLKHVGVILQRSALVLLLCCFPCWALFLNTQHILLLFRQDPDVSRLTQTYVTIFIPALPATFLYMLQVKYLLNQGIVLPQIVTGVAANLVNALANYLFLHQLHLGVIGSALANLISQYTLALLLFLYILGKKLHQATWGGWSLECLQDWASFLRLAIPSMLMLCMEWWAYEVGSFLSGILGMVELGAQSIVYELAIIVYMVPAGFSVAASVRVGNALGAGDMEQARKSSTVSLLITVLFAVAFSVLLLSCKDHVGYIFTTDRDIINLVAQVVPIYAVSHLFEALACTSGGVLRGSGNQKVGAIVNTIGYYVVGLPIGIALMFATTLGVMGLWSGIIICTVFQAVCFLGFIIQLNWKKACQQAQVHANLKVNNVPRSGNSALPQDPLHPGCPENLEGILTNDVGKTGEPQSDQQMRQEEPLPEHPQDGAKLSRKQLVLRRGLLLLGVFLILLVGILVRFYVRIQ
UniProt P30656, sequence (whole entry, looked up): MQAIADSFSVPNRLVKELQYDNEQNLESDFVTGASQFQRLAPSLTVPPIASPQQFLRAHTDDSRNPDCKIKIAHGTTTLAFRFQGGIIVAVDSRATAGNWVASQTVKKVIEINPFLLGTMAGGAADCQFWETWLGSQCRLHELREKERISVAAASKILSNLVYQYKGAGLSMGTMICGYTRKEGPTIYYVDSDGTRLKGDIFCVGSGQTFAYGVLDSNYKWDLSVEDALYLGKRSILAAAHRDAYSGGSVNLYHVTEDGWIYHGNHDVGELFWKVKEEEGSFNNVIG
UniProt P25043, sequence (whole entry, looked up): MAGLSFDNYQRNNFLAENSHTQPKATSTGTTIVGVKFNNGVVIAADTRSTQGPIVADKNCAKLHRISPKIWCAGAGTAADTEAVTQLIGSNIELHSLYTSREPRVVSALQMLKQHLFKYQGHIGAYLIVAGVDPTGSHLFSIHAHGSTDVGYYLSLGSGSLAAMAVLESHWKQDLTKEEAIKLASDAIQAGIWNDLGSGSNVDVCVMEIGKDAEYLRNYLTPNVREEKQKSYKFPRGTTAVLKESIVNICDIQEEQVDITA
UniProt P38624, sequence (whole entry, looked up): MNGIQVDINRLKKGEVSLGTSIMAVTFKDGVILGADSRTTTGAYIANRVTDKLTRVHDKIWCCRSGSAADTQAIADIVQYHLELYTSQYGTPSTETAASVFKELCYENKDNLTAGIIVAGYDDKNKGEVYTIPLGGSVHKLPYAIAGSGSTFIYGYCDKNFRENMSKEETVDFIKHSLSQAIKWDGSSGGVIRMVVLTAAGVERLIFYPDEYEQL
UniProt P11362, sequence (whole entry, unmodified, looked up): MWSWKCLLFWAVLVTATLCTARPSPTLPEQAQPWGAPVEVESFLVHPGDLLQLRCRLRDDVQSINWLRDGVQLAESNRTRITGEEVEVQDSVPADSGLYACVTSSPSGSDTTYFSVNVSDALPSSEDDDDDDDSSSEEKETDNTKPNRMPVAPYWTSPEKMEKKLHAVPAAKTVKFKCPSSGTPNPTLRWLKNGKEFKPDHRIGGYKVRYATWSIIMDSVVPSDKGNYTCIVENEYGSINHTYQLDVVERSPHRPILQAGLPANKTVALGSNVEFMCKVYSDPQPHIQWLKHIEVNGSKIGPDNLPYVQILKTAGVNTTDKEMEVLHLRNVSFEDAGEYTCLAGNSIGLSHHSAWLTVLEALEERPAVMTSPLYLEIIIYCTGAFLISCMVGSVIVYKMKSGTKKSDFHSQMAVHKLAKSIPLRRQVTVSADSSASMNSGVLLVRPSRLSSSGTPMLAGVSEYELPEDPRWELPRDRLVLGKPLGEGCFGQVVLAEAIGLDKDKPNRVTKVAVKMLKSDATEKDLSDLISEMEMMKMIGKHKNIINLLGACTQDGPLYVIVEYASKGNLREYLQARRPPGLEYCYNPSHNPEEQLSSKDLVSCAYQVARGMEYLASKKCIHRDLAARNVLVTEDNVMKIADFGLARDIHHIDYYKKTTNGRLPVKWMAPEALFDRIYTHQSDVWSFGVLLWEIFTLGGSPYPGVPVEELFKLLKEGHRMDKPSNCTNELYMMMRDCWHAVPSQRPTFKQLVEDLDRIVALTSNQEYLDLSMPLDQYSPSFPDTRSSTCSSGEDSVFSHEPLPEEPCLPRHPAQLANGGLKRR
UniProt O00141, sequence (whole entry, looked up): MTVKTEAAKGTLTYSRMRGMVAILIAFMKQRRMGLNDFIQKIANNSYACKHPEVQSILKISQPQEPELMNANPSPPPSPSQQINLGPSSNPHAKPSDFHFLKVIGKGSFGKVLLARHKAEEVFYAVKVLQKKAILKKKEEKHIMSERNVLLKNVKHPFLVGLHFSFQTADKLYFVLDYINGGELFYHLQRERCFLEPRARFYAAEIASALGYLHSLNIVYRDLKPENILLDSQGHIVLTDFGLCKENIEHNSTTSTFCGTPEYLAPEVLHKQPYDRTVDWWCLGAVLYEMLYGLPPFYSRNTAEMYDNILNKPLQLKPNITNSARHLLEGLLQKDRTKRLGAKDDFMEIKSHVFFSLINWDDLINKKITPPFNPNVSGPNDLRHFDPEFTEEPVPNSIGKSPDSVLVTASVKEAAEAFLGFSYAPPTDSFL

Structure (SMILES)	target or system	assay	system	setting	scale	measurement	result
O=S(=O)(F)c1cccc(S(=O)(=O)Nc2ccc(C3CC3)c(F)c2)c1	GTPase KRas (KRAS, Homo sapiens, UniProt P01116)	covalent modification	–	4 °C	–	half-life	8.1 h
CCCC[C@H](NC(=O)CN1CCC(NC(=O)CN2CCN(CC(N)=O)CCN(CC(N)=O)CCN(CC(N)=O)CC2)CC1)C(=O)N[C@H]1CC(=O)NCCCC[C@@H](C(N)=O)NC(=O)[C@H](Cc2c[nH]c3ccccc23)NC(=O)[C@H](CCCNC(=N)N)NC(=O)[C@@H](Cc2ccccc2)NC(=O)[C@H](Cc2c[nH]cn2)NC1=O [lead-212 labelled]	–	–	male C57BL/6J mice, B16-F10 tumour, bone	intravenous, 20 pmol, 2 h, ex vivo	–	tissue uptake	0.79 ± 0.05 %IA/g
O=C1NC(=O)c2c1c1cc(F)c[n+]3c1c1c2c2cc(O)ccc2[n]1[Ru-4]312([N]=C=S)[S+]3CC[S+]1CC[S+]2CC3 (stereo not shown)	FGFR1 (Homo sapiens, UniProt P11362, V561M)	enzyme activity	–	100 nM, human enzyme, with: 10 µM ATP	reference: untreated	remaining activity	16%
C[C@@]12CC[C@@H]3[C@H](CC[C@@H]4C[C@@H](O)CC[C@]43C)[C@H]1CC(=O)C2	SCN5A (Homo sapiens, UniProt Q14524)	ion current, blocker	–	–	–	IC50	17.2 µM
Cc1cc(-c2ccc3ccccc3c2)nnc1NCCN1CCN(C)CC1	CYP1A2	substrate	recombinant enzyme	100 nM, 0.5 h	–	remaining compound	88%
CC12CCC(=O)C=C1CCC1C2C=C(c2cccnc2)C2(C)C(=O)CCC12 (stereo not shown)	7-alpha-hydroxycholest-4-en-3-one 12-alpha-hydroxylase	12α-hydroxylation of 7α-hydroxycholest-4-en-3-one, inhibitor	–	80 µM, wild type	–	inhibition	no inhibition
Oc1c(Br)cccc1Br	CYP2E1	p-nitrophenol hydroxylation, inhibitor	–	with additive 100 µM	–	IC50	35 µM
CC(C)(C)C(=O)OCOP(=O)(OCOC(=O)C(C)(C)C)C1CCCN(O)C1=O (stereo not shown)	NCI-H226	–	–	–	–	GI50	0.996 µM
C[C@@H](c1ccc2nccn2c1)n1nnc2nc(O)c(-c3cnn(C)c3)nc21	CYP2E1	enzyme activity, inhibitor	human, liver microsomes	–	–	IC50	> 50 µM
CNC(=O)C1CCCN(C(=O)C2CC3CCC2N3C(=O)[C@@H]2C[C@@H](O)CN2C(=O)NCc2cccc(Cl)c2F)C1 (mixture of isomers)	CYP3A4 (human)	inhibitor, time-dependent inhibition	–	5.56 µM, preincubated without NADPH, with: midazolam substrate	reference: negative control	remaining activity	101%
CC(C)CC(C(=O)N1CC2(CC1C#N)C(=O)Nc1ccccc12)N(C)C(=O)c1cc2c(F)cc(F)c(F)c2[nH]1 (stereo not shown)	Betacoronavirus 1	viral replication	HCT-8, OC43	0.5 µM	–	inhibition	99.5%
CC(C)[C@H]1NC(=O)C[C@H]2/C=C/CCSSC[C@@H](NC1=O)C(=O)N[C@H](Cc1cccc3ccccc13)C(=O)NCC(=O)O2	SGK1 (Homo sapiens, UniProt O00141)	enzyme activity, inhibitor	–	10 µM	–	inhibition	10.5%
COC(=O)[C@@H](NC(=O)c1nn(Cc2ccc(F)cc2)c2cc(OCCCCNC(=N)N)ccc12)C(C)(C)C	central CB1 receptor	–	mouse	intraperitoneal	–	dose producing catalepsy	30 mg/kg
CCCCCCCC/C=C/CCCCCCCC(=O)[O][Pt-2]1([OH])([Cl])([NH+]=C(CC)N(C)CCNc2c3ccccc3[nH+]c3ccccc23)[NH2+]CCC[NH2+]1.O=[N+]([O-])[O-].O=[N+]([O-])[O-]	bovine serum albumin	–	FBS medium	–	–	protein-bound fraction	> 95%
Cc1cc(Br)c(O)c(Br)c1	CYP2E1	p-nitrophenol hydroxylation, inhibitor	–	with additive 100 µM	–	Ki	2.1 µM
C[C@]12C(c3cccnc3)=C[C@H]3[C@@H](CCC4=C[C@H](O)CC[C@@]43C)[C@@H]1CC[C@@H]2O	7-alpha-hydroxycholest-4-en-3-one 12-alpha-hydroxylase	12α-hydroxylation of 7α-hydroxycholest-4-en-3-one, inhibitor	–	80 µM, wild type	–	inhibition	34%
COc1ccccc1-c1n[nH]c2nc(N[C@H]3CC[C@H](NS(=O)(=O)CC(C)C)CC3)ncc12	–	bead binding, competition bead pull-down, refers to: LINJ.36.6910	Leishmania donovani extract	10 µM	reference: vehicle	relative abundance	0.64
O=C1NC2(CC2)COc2ncc(F)cc2[C@H]2COCCN2c2ccn3ncc1c3n2	–	–	Sprague-Dawley rat, male, serum	oral, 10 mg/kg/day, 4 weeks daily, end of recovery period	–	potassium	4.6 ± 0.18 mmol/L
CSc1nc2[nH]nc([N+](=O)[O-])c(=O)n2n1	SLC47A1	transport, inhibitor	transiently transfected cells	100 µM, 10 (unit not given), with: metformin	–	inhibition	7.7%
COc1ccccc1-c1n[nH]c2nc(NC3CCN(C(=O)Cc4ccc(F)cc4F)CC3)ncc12	–	bead binding, competition bead pull-down, refers to: LINJ.32.3470	Leishmania donovani axenic amastigote extract	10 µM	reference: vehicle	relative abundance	0.78
CNC(=O)C1OC(n2cnc3c(NCc4cccc(I)c4)ncnc32)C(O)C1O (stereo not shown)	SLC47A1	transport, inhibitor	transiently transfected cells	100 µM, 10 (unit not given), with: metformin	–	inhibition	85%
CCN(CC)CCOc1ccc(-c2nnn(Cc3ccc(OC)cc3)c2N)cc1	CYP1A2	CYP phenotyping	–	concentration not given	–	inhibition	10.4%
CC(C)C[C@H](NC(=O)[C@@H](N)CCCCN)C(=O)N[C@H](C(=O)N[C@@H](Cc1ccccc1)C(=O)N[C@@H](Cc1ccccc1)C(=O)N[C@@H](C)C(=O)N[C@@H](CCC(=O)O)C(=O)N[C@@H](CC(=O)O)C(=O)N[C@H](C(=O)NCC(=O)N[C@@H](CO)C(=O)N[C@@H](CC(N)=O)C(=O)N[C@@H](CCCCN)C(=O)O)C(C)C)C(C)C	PUP1/PRE2/PRE3 (Saccharomyces cerevisiae, UniProt P25043+P30656+P38624)	nanoLC-HRMS	–	2 µM, 30 min, pH 8, 37 °C, proteasome 2 nM, with: amyloid-β 1-40 peptide	reference: initial	remaining substrate	33%
C[C@@H](c1ccc2nccn2c1)n1nnc2ncc(-c3cn[nH]c3)nc21	CYP1A2	enzyme activity, inhibitor	human, liver microsomes	–	–	IC50	22 µM
CC(=O)NCCCC[C@@H]1NC(=O)[C@H](Cc2c[nH]c3c(C)cccc23)NC(=O)[C@H]([C@@H](C)O)NC(=O)[C@H](CC(N)=O)NC(=O)[C@@H](NC(C)=O)C(C)(C)SSC(C)(C)[C@@H](C(=O)N[C@@H](Cc2ccc(OCCN)cc2)C(=O)N[C@@H](Cc2ccc3ccccc3c2)C(=O)NC2(C(=O)N[C@@H](CCC(=O)O)C(=O)N[C@@H](CC(N)=O)C(=O)N[C@@H](Cc3cccnc3)C(=O)N(C)CC(N)=O)CCOCC2)NC1=O	human alpha-1-acid glycoprotein 0.07%	equilibrium dialysis	–	1 µM	–	protein binding	1.07 ± 0.54%

For quick reference, copied from above:
Structure (SMILES)	target or system	assay	system	setting	scale	measurement	result
CC(C)(C)C(=O)OCOP(=O)(OCOC(=O)C(C)(C)C)C1CCCN(O)C1=O (stereo not shown)	NCI-H226	–	–	–	–	GI50	0.996 µM
C[C@@H](c1ccc2nccn2c1)n1nnc2nc(O)c(-c3cnn(C)c3)nc21	CYP2E1	enzyme activity, inhibitor	human, liver microsomes	–	–	IC50	> 50 µM
